{"data": "Results pooled from the literature", "note": "Each numbered part is a random draw from the data of one study; scales do not carry over between parts."}
{"data": "Study 1", "target": "Protein C-ets-1 (ETS1, Homo sapiens, UniProt P14921, residues 1-441, full length assumed)", "method": "protein-binding microarray", "form": "double-stranded DNA, one strand shown", "medium": "in vitro", "tested at": "not given", "notes": "k-mer, scored over probes, only values ≥0.25", "direction": "higher = stronger binding", "Construct (chain)": "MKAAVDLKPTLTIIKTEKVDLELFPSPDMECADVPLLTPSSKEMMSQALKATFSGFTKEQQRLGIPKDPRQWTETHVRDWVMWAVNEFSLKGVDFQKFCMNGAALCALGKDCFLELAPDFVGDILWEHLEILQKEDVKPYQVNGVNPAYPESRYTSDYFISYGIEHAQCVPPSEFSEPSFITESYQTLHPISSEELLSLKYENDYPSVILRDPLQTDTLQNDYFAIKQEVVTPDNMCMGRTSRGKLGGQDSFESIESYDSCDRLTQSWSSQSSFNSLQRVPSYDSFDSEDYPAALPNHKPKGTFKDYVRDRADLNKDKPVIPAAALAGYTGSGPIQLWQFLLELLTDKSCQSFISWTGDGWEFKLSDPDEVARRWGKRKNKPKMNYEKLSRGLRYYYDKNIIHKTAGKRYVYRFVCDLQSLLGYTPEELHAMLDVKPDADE"}
{"Strand": "CGGACGCA", "E-score": 0.385}
{"Strand": "CGGGAACC", "E-score": 0.256}
{"Strand": "AGTTCCTG", "E-score": 0.419}
{"Strand": "CTTCTTCC", "E-score": 0.333}
{"data": "Study 2", "Substance": "PhoQ, residues 284 288 289 292 302 303 MLMVEA", "method": "Sort-seq", "item": "YFP reporter", "medium": "E. coli", "notes": "PhoQ-PhoP variant library", "added": "10 µM Mg2+", "baseline": "high Mg2+ state", "direction": "higher = stronger signaling"}
{"target": "PhoP, residues 12 14 15 18 19 ICWRQ (Escherichia coli, UniProt P23836)", "fold induction": 11.5}
{"target": "PhoP, residues 12 14 15 18 19 VHTVL (Escherichia coli, UniProt P23836)", "fold induction": 9.99}
{"target": "PhoP, residues 12 14 15 18 19 TQCLL (Escherichia coli, UniProt P23836)", "fold induction": 12.9}
{"data": "Study 3", "target": "RNA binding protein fox-1 homolog 2, RRM domain, GST-SBP tag (RBFOX2, Homo sapiens, UniProt O43251-10, residues 100-194)", "method": "RNA Bind-n-Seq", "form": "RNA", "medium": "in vitro", "tested at": "365 nM", "notes": "natural RNA segment, single round, ends assumed", "baseline": "no-protein control", "direction": "higher = stronger binding", "all sequences stand within": "GGGAGUUCUACAGUCCGACGAUC … UGGAAUUCUCGGGUGCCAA", "Target sequence (chain)": "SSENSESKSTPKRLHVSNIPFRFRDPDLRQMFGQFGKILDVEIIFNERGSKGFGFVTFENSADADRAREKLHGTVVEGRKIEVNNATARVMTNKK"}
{"Strand": "GCACAAUUGAUAGUGUACCAAUAGAGGGAGACUGGGCGAUCUGGAACAGCACGUGGUGGGGUCCUGCUUGUGUGCUCUGCGUUCCUCUGUGGCGUGGCCAGGCCGGGGCA", "RBNS enrichment (R)": 18.3}
{"Strand": "GUGUCAGAAAUAAAGUGUUCGUGCUUUUCCUUGUCAGGAGUCCCGUGUUUGUCACUUGUUGUGUGGUUUUAUGUUUCCCGCUGUGUGAGCAUAAACACUGUGCAGUUUUC", "RBNS enrichment (R)": 0.347}
{"Strand": "UAAAUUGGCAUAAAGCUGCAUACUUUUUGUCUAGCUGUUUGAUUUCAUUUUUUAAUAUAGUAUGCCAAUUUUGUGACUGUUACCAUGUGAAAGUCCUGUUGAAAUGAACA", "RBNS enrichment (R)": 0.66}
{"Strand": "GCCAAAUACACUGUGCAUAUCUGCAAUUUAAUCUUUGAAUGUAUGUUACUGGAUUAGCUCCCUCCUCCUGUGUGAUGGUACCAUGCAUAGAGUCAAUCAAAUCCUUGUGA", "RBNS enrichment (R)": 1.01}
{"Strand": "CUGCAAAGAGAGGCUCACGUGCCUCUCGGGUACAUGGAGAAGUUGCCAAGAGUUCUUUAGGUGCCUCCUGUCUUAUGGCGUUGCAGGCCAGGUUAUGCCUCAUGCUGACU", "RBNS enrichment (R)": 0.214}
{"Strand": "UUGCACACUUGUUUGUACUGUUUUCUUUGAAAUAAAAGUGACUAAUUUUGUCGUACUCUAUCUGUAAGAGCAGAGCCAUAUGUAAUGUACCCACAAAUUCUCUCUUCCUC", "RBNS enrichment (R)": 0.567}
{"Strand": "UUAUGAAACUUUAAAGUUCUUUAUAAAAUGCAGCAGUGGAAAACUGACUAACAAAUCGAAUGUAAAGUUGGGAAUGUUUGGUUCUGUGUAUGCAGACACAUGAGCUGUGG", "RBNS enrichment (R)": 2.17}
{"Strand": "UUCACUUUUGUAGACCUUCCCUGAAGUCCAUGGAACAGACCUAAGGGAACAACUGAGCAUCAAAACCGGCUUUGCUUUACUUCCUGGCAGGCUGCAGCCAAGGGGACUGA", "RBNS enrichment (R)": 0.536}
{"data": "Study 4", "target": "Histone acetyltransferase KAT6A, both winged helices, GST fusion (KAT6A, Homo sapiens, UniProt Q92794, residues 1-181)", "method": "protein binding microarray", "form": "double-stranded DNA, one strand shown", "medium": "in vitro", "tested at": "not given", "notes": "8-mer, flanks averaged, mean of 2 arrays, mostly near background", "baseline": "not given", "direction": "higher = stronger binding", "Target sequence (chain)": "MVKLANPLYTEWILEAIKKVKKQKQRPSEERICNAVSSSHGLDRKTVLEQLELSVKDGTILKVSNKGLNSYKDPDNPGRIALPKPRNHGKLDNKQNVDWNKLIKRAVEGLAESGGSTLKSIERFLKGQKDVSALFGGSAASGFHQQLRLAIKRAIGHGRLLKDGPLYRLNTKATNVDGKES"}
{"Strand": "AAACCCAC", "E-score": -0.0134}
{"Strand": "GCATCGCC", "E-score": 0.216}
{"Strand": "ACATTGTC", "E-score": 0.0802}
{"Strand": "TTCCCCAA", "E-score": -0.2}
{"Strand": "AAGTCTCA", "E-score": -0.221}
{"Strand": "AACTCTAC", "E-score": -0.204}
{"Strand": "GGCCTCAC", "E-score": -0.0191}
{"Strand": "GTCTCGGA", "E-score": 0.0717}
{"Strand": "GCGTCTAA", "E-score": 0.161}
{"Strand": "CCTATCTC", "E-score": -0.218}
{"note": "Some of these lines once more (study 3):"}
{"Strand": "UUGCACACUUGUUUGUACUGUUUUCUUUGAAAUAAAAGUGACUAAUUUUGUCGUACUCUAUCUGUAAGAGCAGAGCCAUAUGUAAUGUACCCACAAAUUCUCUCUUCCUC", "RBNS enrichment (R)": 0.567}
{"Strand": "GCACAAUUGAUAGUGUACCAAUAGAGGGAGACUGGGCGAUCUGGAACAGCACGUGGUGGGGUCCUGCUUGUGUGCUCUGCGUUCCUCUGUGGCGUGGCCAGGCCGGGGCA", "RBNS enrichment (R)": 18.3}
{"Strand": "UAAAUUGGCAUAAAGCUGCAUACUUUUUGUCUAGCUGUUUGAUUUCAUUUUUUAAUAUAGUAUGCCAAUUUUGUGACUGUUACCAUGUGAAAGUCCUGUUGAAAUGAACA", "RBNS enrichment (R)": 0.66}
{"Strand": "CUGCAAAGAGAGGCUCACGUGCCUCUCGGGUACAUGGAGAAGUUGCCAAGAGUUCUUUAGGUGCCUCCUGUCUUAUGGCGUUGCAGGCCAGGUUAUGCCUCAUGCUGACU", "RBNS enrichment (R)": 0.214}
